Experimental data gathered from unrelated publications.
Every numbered part comes from another study and shows a few of its results, in no order.
Sequence of UniProt Q09013 (whole entry, looked up): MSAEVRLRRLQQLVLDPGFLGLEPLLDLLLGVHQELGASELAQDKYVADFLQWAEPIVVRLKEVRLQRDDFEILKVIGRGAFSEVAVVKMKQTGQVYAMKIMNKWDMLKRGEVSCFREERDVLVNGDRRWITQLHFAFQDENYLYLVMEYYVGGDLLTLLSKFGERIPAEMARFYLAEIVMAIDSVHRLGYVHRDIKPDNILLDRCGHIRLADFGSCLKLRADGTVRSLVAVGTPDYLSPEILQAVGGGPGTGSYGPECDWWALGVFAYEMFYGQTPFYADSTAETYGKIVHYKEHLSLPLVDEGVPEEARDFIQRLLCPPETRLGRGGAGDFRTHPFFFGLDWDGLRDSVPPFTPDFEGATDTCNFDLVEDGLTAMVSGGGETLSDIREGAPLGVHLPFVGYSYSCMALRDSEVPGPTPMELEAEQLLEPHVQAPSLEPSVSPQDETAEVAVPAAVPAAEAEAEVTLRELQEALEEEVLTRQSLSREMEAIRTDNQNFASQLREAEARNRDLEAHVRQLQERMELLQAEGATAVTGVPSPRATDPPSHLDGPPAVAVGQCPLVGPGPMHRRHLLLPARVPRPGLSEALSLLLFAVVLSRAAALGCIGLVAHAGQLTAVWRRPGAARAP

Sample 1
Target: RNA binding protein fox-1 homolog 2, RRM domain, GST-SBP tag (RBFOX2, Homo sapiens, UniProt O43251-10, residues 100-194)
Method: RNA Bind-n-Seq
Form: RNA
Medium: in vitro
Tested at: 365 nM
Notes: natural RNA segment, single round, ends assumed
Baseline: no-protein control
Reading: higher = stronger binding
Endpoint: RBNS enrichment (R)
Constant ends, left off below: GGGAGUUCUACAGUCCGACGAUC … UGGAAUUCUCGGGUGCCAA
Residues (chain): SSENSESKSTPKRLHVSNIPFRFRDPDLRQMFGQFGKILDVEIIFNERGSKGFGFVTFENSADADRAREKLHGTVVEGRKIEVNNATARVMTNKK
GUACAAAUGUGUUACACAUAAAUGUUUUCCUUCCUGGGGGUCUGUGUUGGAUGUUGUGGGCCUGGAGUCAAUAGGAACAUACAAUGUGUGUAGUGUCCGCUAAGGUUGCA: 20.3
GGGGGUCCACCCGCCUCCAUCUGGAUACUACAACCUCCCUCCUUCCUAAGUUUUGAGGUGGGGUGAUGGCCCUCUACUUCCCUGUUUAUAGUCUAACUCACCUAUUAACC: 0.512
AUUAUUUCAGAGGUCACUGAAGACUGUGAUUACAUGCACCUGCCUUAGAAGGUAGGAUUUUCUUCCCAGGGACCUCCUAUCACCCUACCCUGCUUCUUGAGGUCCCUGGA: 0.688
CCACUAUCAAAGUUCCAGCUACCUGCAAGGUGAAGGAAGGCAUCCCUUUUGGGGCAUGCACUUUCUUUCCUUUCUCAAAAUAAUGUUAUAUGUGGCCACACUGAUGUUCA: 0.391
CUCUAAAAUUAAAUUUUACAUAAAAGUUAGUUUUAUUCACCUUUAGGCUUUCCAAGUGAAUUGUGACUAAUUUUUUCAAUCUUACAUAGAUCUUUCACCCAUUAGCAUUA: 1.23
CUAGGGGGAUGUGUUUAUAUAUACAUUUGCAUAUACCCACGGGGGAUUAUGAGCUAAUUUUUUUUAUAGGACACAGAAUUCUAUUCAAUGCUGUUAAAUAUGCAAAUAGU: 0.479
AUUUCUGGUUGCACCGCGGCGCUUCCCAGCACCAACAUGUAACCGGCAUGUUUCCAGCAGAAGACAAAAAGACAAACAUGAAAGUCUAGAAAUAAAACUGGUAAAACCCC: 0.227
GAGACUCCUCAGAUGUGGGAACUCUGGUUCUUUCCGUGCUGUGUUCUGGAGAGAUCUCACGUGGAUGGUACCGGUGCUCUGAGCACCACAGAUGUGAGCUACAGUUCGUU: 0.392

Sample 2
Target: Serine/threonine-protein kinase Nek7 (NEK7, Homo sapiens, UniProt Q8TDX7)
Observed: enzyme activity
Mode: inhibitor
Tested at: 0.5 µM
Baseline: control
Endpoint: remaining activity
Construct (Q8TDX7 1-302): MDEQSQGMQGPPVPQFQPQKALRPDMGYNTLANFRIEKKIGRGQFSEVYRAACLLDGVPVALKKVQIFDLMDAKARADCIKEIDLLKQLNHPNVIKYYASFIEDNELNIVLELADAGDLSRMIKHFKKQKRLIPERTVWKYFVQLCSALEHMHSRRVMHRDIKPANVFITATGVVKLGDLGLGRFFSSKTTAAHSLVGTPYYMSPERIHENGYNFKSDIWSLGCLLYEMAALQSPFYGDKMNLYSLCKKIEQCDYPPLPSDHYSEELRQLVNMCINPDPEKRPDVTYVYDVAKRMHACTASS
O=c1c(-c2ccc(F)cc2)c(-c2ccncc2)[nH]n1-c1ccc(Cl)cc1: 90.1%
O=C(c1ccccc1)c1ccc(N2CCOCC2)cc1O: 104%
CCN(CC)CCCCN1c2ccccc2Oc2ccc(Cl)cc21: 89.7%
O=Nc1c(-c2c(O)[nH]c3ccccc23)[nH]c2ccccc12: 106%
N#C/C(=C(/N)SC1C=CC=CC1)c1cccc(C(O)c2ccncc2)c1 (stereo not shown): 96.2%
O=C(O)/C=C/c1cc(Br)c(Br)c(Br)c1Br: 98%
N#CC(c1ccnc(NCCc2cccnc2)n1)c1nc2ccccc2s1 (stereo not shown): 88.2%
FC(F)(F)c1ccc(/C=C/c2nc(COc3ccc(CCCCn4ccnn4)cc3)co2)cc1: 94.6%

Sample 3
Target: Sal-like protein 4, full length isoform A (SALL4, Homo sapiens, UniProt Q9UJQ4, residues 1-1053)
Sequence of UniProt Q9UJQ4 (whole entry, looked up): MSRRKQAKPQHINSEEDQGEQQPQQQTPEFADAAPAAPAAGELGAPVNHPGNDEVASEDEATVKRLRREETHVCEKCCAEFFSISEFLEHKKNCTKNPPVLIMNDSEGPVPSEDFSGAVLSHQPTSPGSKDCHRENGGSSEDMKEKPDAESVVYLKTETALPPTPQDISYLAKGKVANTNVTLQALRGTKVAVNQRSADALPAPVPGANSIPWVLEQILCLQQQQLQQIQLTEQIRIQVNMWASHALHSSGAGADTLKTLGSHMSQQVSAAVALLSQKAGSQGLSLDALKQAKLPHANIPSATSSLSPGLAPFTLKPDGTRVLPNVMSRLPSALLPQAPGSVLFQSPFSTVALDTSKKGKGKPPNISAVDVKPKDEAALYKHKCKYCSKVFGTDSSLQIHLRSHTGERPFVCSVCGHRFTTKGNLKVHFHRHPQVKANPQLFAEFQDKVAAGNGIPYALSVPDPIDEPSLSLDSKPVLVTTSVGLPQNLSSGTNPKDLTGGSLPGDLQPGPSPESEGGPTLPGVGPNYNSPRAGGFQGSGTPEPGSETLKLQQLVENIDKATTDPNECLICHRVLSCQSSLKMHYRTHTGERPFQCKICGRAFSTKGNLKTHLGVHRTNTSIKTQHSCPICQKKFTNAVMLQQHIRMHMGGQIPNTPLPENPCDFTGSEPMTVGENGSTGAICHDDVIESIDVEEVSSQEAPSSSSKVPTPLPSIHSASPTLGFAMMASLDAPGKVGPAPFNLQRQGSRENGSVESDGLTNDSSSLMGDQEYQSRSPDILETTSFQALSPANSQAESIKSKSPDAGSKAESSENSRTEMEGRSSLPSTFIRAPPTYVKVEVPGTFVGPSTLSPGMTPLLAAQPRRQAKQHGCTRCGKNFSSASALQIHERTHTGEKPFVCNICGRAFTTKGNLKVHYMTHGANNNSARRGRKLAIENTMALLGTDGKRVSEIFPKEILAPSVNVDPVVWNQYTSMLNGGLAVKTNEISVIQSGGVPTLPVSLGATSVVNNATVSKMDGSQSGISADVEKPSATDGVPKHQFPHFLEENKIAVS
Method: universal PBM
Form: double-stranded DNA, one strand shown
Medium: in vitro
Tested at: 600 nM
Notes: 8-mer, flanks averaged, mean of replicates
Reading: higher = stronger binding
Endpoint: E-score
AGACGTAA: 0.0953
GGGATCCA: -0.172
CTATAGAC: 0.132
GGTATCGA: 0.0678
CACAACTC: 0.142
CACGATCG: -0.0254
GTCAGGAC: -0.197
GCTCCCGA: -0.248

Other studies, line by line
Cc1c(NC(=O)c2cc(C(N)=O)nc3cc(F)ccc23)c(C(F)(F)F)nn1Cc1ccc(C#N)cc1
remaining binding (Myotonin-protein kinase (DMPK, Homo sapiens, UniProt Q09013); cell-free assay, competition with immobilised ligand; 1 µM): 92%
